Measured values pooled from the literature.
Protocols differ between the studies behind these lines. “And” joins repeats or separate records; there may be more than shown. ± gives the spread as reported.

Compound | cell line | assay | setting | scale | endpoint | result
O=C(/C=C/C=C/C=C/C1CCCCC1)NC1=C[C@@](O)(/C=C/C=C/C=C/C(=O)NC2=C(O)CCC2=O)[C@@H]2O[C@@H]2C1=O | NCI-H1437 | cell growth, CellTiter-Glo | 78 h | – | GI50 | 24 µM
C=CC(=O)N1[C@@H](c2ccc3c(c2)OCO3)c2[nH]c3ccccc3c2C[C@H]1C(=O)NC | rat DRG neurons | – | 10 µM, 48 h, together with: vincristine 40 nM | – | mean neuron degeneration | 21.1%
Cl.Cl.N=C(NCCCCCCNC(=N)NC(=N)Nc1ccc(Cl)cc1)NC(=N)Nc1ccc(Cl)cc1 | BT-16 | cell viability, MTT | 10 µM, 72 h | – | inhibition | 88.2%
CCOc1cc(-c2nncn2C)ccc1Nc1ncc2cc(C)nc(N3CC(C)(C)C3)c2n1 | CAL-51 | cell growth | 72 h | – | GI50 | 0.049 µM
CC(C)(c1ccc(O)cc1)c1ccc(O)cc1 | HepG2 spheroids | Hoechst flow cytometry | 10 µM, 96 h | – | G1 phase cells | 71.7 ± 5.34%
Cc1nc(NC(=O)N2CCC[C@H]2C(N)=O)sc1-c1ccnc(C(C)(C)C(F)(F)F)c1 | PC-3 | resazurin growth rate inhibition | 72 h | – | GR50 | > 5 µM
Cn1cc(-c2ccc(-c3cncc(Cl)c3N3CCC4(CCNC4=O)CC3)cc2)cn1 | COLO 205 | gene expression, microarray, refers to: SLC2A4 mRNA | concentration not given, 6 h | reference: untreated cells | log2 fold change | -2.54
C[C@H](Nc1ccc2c(c1)OCCn1cc(N3C(=O)OC[C@H]3C(F)F)nc1-2)C(N)=O | BFTC-909 | cell growth, CellTiter-Glo | 120 h | – | Hill coefficient GR curve | 1.3
CC1(C)Oc2ccc(CC3=C(c4ccc(O)cc4)C(=O)NC3=O)cc2C[C@@H]1O | RPTEC | qPCR | 10 µg/mL, 24 h, basal, no LPS | – | COX-2 mRNA level | no effect
CCC[C@H](NC(=O)/C(C#N)=C/c1cccc(Br)n1)c1ccccc1 | BT-16 | cell viability, MTT | 10 µM, 72 h | – | inhibition | 94.1%
COc1cccc2c1C(=O)c1c(O)c3c(c(O)c1C2=O)C[C@@](O)(C(=O)CO)C[C@@H]3O[C@H]1C[C@H](N)[C@H](O)[C@H](C)O1 | HeLa and Vero | MTT | – | reference: CC50 Vero over EC50 HeLa | selectivity index | 1.75
Cn1cc(Nc2nccc(-c3ccc4c(c3)CN(C3COC3)CC[C@H]4NC(=O)c3cn(C(C)(C)C)nn3)n2)cn1 | mouse splenic B cells | refers to: Histamine degradation | 30 mg/kg, IgD-activated in vivo | reference: vehicle, direction not given | pathway activation z-score | 2
CCn1c(=O)c(-c2cc[nH]n2)cc2c(C)nc(N)nc21 | RD | mRNA and protein, IFN-β, qRT-PCR and ELISA | 4 µM, 20 h, together with: EV71 or poly(I:C) | – | IFN-β production | no effect
COc1cnc2cccc(N3CCc4c(cc(Cn5ccnc5C)cc4-c4cn(C)nc4C(F)(F)F)C3=O)c2c1 | DU-4475 | cell growth, inhibitor | 120 h | – | EC50 | 7.97 µM
O=C(/C=C\n1cnc(-c2cc(C(F)(F)F)cc(C(F)(F)F)c2)n1)NNc1cnccn1 | BT-16 | cell viability, MTT | 10 µM, 72 h | – | inhibition | 88.5%
C=CC1=C(C)c2cc3[n-]c(cc4nc(cc5[n-]c(cc1n2)c(C)c5C=C)C(C)=C4CCC(=O)O)c(CCC(=O)O)c3C.[Zn+2] | SH-SY5Y | RNA-seq, refers to: FLNC mRNA | 5 µM, 5 h | reference: untreated cells | fold change | 1.82
CC(C)(C)c1nc(-c2cccc(NS(=O)(=O)c3c(F)cccc3F)c2F)c(-c2ccnc(N)n2)s1 | SK-MEL-239 (BRAF V600E) | ERK phosphorylation, Western blot | 1 h | – | IC75 | 25 nM
C=CCn1c(=O)c2cnc(Nc3ccc(N4CCN(C)CC4)cc3)nc2n1-c1ccc2c(n1)[C@@](O)(CC)CC2 | Kuramochi | flow cytometry | concentration not given | – | G1 phase cells | 37%
Nc1ncnc2c1ncn2[C@@H]1O[C@H](CO)[C@@H](O)[C@H]1O | activated human T cells | refers to: ATP | 50 µM | reference: DMSO | log2 fold change | 1.6 and 1.2 and 2.2
CCn1cc(-c2cc(Cn3ccoc3=N)cc3c2CCN([C@@H](C)c2cc(OC)ccn2)C3=O)c(C(F)(F)F)n1 | COLO-320-HSR | cell growth, inhibitor | 120 h | – | EC50 | 0.132 µM
COCCn1c2c([n+](Cc3cnccn3)c1C)C(=O)c1ccccc1C2=O | BT-16 | cell viability, MTT | 10 µM, 72 h | – | inhibition | 95.3%
